# Experimental data from different studies.
# Numbered parts are unrelated; each lists some results of a single study.
# UniProt Q13705, sequence (whole entry, looked up): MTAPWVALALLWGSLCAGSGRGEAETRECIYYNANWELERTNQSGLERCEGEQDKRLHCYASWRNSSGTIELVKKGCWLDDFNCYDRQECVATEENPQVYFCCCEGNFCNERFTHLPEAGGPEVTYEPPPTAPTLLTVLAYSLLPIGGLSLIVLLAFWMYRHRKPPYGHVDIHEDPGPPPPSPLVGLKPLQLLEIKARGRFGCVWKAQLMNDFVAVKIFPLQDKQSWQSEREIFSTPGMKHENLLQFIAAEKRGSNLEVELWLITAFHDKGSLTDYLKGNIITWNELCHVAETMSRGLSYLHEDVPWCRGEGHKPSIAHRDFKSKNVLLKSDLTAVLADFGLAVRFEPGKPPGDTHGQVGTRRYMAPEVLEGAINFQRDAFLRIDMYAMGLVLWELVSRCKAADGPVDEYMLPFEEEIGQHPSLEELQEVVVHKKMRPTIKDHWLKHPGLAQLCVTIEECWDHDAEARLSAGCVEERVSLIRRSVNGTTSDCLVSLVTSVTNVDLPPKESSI
# UniProt Q13554, sequence (whole entry, looked up): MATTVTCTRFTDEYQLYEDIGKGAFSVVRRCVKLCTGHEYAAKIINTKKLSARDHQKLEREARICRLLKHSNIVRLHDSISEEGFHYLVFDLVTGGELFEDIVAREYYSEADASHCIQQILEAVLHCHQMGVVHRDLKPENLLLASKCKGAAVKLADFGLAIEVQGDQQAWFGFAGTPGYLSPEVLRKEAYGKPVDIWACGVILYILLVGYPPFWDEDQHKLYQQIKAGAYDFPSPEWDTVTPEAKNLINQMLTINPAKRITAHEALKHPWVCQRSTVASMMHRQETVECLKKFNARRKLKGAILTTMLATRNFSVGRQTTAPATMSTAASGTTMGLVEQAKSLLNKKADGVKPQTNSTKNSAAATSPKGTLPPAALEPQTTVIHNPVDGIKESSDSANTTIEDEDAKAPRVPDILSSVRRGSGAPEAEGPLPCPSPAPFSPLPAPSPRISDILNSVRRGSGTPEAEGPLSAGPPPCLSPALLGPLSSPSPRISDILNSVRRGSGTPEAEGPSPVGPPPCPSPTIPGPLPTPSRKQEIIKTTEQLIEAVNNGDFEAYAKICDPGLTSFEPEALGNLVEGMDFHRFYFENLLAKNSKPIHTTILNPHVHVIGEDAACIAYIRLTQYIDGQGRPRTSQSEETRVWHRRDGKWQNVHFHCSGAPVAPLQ
# UniProt Q14164, sequence (whole entry, looked up): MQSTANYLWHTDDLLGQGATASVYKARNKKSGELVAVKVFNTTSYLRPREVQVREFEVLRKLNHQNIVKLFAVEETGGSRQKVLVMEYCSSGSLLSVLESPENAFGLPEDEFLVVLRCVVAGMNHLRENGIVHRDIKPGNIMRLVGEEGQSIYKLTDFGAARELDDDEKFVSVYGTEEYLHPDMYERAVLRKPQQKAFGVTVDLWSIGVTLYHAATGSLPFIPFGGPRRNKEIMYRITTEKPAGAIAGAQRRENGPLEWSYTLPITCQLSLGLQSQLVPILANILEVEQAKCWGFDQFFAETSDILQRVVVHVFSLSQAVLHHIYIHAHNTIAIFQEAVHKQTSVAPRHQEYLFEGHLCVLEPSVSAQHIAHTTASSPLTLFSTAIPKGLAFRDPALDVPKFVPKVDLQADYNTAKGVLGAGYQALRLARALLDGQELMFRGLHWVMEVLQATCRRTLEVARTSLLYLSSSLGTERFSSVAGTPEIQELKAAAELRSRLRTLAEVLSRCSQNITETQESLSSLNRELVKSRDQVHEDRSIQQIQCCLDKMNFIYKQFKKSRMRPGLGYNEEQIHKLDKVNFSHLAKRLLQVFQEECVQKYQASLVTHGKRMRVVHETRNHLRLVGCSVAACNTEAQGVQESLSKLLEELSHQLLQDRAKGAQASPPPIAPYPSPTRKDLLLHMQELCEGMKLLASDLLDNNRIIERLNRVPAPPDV
# UniProt Q8TDX7, sequence (whole entry, looked up): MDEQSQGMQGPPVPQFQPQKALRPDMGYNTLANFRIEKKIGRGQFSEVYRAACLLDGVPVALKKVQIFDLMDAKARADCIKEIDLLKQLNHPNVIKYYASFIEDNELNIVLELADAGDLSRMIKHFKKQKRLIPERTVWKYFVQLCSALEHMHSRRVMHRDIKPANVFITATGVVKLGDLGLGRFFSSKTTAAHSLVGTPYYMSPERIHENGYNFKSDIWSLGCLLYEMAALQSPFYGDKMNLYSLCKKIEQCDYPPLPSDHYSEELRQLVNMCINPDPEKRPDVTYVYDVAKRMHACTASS
# UniProt P0C1S8, sequence (whole entry, looked up): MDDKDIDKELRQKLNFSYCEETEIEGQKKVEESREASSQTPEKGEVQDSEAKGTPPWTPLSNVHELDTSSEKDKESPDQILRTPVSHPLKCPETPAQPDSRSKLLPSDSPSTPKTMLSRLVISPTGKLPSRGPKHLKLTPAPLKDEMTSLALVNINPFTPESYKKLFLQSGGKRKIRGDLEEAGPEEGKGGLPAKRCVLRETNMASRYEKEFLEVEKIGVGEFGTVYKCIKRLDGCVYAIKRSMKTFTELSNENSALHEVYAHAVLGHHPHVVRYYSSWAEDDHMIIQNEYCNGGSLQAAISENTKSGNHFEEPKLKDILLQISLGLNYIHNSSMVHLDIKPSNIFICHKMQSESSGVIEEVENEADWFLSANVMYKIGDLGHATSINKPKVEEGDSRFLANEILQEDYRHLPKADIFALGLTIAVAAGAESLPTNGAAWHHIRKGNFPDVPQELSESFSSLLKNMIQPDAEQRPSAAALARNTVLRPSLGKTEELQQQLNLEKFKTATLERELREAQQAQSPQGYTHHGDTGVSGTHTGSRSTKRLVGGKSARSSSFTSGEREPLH
# UniProt Q16832, sequence (whole entry, looked up): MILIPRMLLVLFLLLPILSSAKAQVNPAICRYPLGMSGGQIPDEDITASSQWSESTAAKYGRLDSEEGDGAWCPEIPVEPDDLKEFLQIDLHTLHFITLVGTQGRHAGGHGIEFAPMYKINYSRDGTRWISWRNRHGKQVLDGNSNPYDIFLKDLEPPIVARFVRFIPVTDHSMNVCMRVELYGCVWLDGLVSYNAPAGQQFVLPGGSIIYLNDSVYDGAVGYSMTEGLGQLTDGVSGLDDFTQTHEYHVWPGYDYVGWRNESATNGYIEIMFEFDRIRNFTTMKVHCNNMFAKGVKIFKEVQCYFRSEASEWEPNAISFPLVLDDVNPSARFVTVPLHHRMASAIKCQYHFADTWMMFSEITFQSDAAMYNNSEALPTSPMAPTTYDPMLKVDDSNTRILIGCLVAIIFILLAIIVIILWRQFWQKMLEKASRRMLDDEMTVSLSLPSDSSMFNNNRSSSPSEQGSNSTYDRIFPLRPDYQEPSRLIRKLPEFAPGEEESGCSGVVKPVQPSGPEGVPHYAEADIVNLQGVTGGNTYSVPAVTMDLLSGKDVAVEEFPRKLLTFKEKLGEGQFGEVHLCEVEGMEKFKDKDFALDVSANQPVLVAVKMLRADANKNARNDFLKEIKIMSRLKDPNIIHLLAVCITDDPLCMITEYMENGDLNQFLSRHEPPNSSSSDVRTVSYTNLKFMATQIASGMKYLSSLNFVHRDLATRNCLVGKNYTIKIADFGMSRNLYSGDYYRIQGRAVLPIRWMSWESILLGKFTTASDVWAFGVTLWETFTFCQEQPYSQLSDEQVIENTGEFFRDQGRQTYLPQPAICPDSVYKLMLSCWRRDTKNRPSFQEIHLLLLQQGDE
# UniProt P19525, sequence (whole entry, looked up): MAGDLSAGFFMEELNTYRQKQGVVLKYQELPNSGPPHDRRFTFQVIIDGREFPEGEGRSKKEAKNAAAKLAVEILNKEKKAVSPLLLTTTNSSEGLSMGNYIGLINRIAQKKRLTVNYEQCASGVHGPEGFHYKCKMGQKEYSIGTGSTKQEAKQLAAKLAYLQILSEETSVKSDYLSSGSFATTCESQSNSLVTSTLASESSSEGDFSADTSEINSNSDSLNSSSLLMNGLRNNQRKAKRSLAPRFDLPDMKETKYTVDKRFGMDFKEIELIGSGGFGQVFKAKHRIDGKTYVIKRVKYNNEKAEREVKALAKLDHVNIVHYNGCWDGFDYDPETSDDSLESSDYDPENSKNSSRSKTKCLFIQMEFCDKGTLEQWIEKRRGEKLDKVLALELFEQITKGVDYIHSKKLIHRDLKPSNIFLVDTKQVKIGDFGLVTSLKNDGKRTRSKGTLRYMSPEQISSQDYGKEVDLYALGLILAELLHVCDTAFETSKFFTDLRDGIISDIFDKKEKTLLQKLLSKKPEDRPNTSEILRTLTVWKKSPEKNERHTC

# Study 1 — SMILES: CSc1cccnc1N1CCN(Cc2nc3ccccc3[nH]2)CC1; technique: competition with immobilised ligand; concentration: 1 µM
target,assay,remaining binding
"Rho-associated protein kinase 2 (ROCK2, Homo sapiens, UniProt O75116)",cell-free assay,74%
"Inhibitor of nuclear factor kappa-B kinase subunit epsilon (IKBKE, Homo sapiens, UniProt Q14164)",cell-free assay,81%
"Receptor-type tyrosine-protein kinase FLT3 (FLT3, Homo sapiens, UniProt P36888)",cell-free assay,100%
"Interferon-induced, double-stranded RNA-activated protein kinase (EIF2AK2, Homo sapiens, UniProt P19525)",cell-free assay,100%
"Tyrosine-protein kinase JAK3, JH1 (JAK3, Homo sapiens, UniProt P52333)",cell-free assay,100%
"Activin receptor type-2B (ACVR2B, Homo sapiens, UniProt Q13705)",binding,98%
"Mast/stem cell growth factor receptor Kit (KIT, Homo sapiens, UniProt P10721, D816H)",cell-free assay,100%
"Insulin receptor-related protein (INSRR, Homo sapiens, UniProt P14616)",cell-free assay,94%
"Activin receptor type-2A (ACVR2A, Homo sapiens, UniProt P27037)",cell-free assay,69%
"Serine/threonine-protein kinase VRK2 (VRK2, Homo sapiens, UniProt Q86Y07)",cell-free assay,75%
"Serine/threonine-protein kinase Nek7 (NEK7, Homo sapiens, UniProt Q8TDX7)",cell-free assay,100%
"Cyclin-G-associated kinase (GAK, Homo sapiens, UniProt O14976)",cell-free assay,99%
"Calcium/calmodulin-dependent protein kinase type II subunit beta (CAMK2B, Homo sapiens, UniProt Q13554)",cell-free assay,100%
"Calcium/calmodulin-dependent protein kinase type IV (CAMK4, Homo sapiens, UniProt Q16566)",cell-free assay,100%
"Wee1-like protein kinase 2 (WEE2, Homo sapiens, UniProt P0C1S8)",cell-free assay,100%
"Discoidin domain-containing receptor 2 (DDR2, Homo sapiens, UniProt Q16832)",cell-free assay,89%
"Serine/threonine-protein kinase PAK 1 (PAK1, Homo sapiens, UniProt Q13153)",cell-free assay,100%

# Study 2 — cell line: mouse MPNST tumor cells; technique: high-content immunofluorescence imaging; item: nuclear SOX9; concentration: 10 µM; time: 12 h; setting: mean of 2 replicates; baseline: DMSO control; reading: higher = more nuclear SOX9
SMILES,nuclear SOX9 intensity
COc1ccc(C(=O)NCc2ccc(OCCN(C)C)cc2)cc1OC,108 % of DMSO
Cc1cccc(Nc2ccncc2S(=O)(=O)NC(=O)NC(C)C)c1,106 % of DMSO
CN(C/C=C/C#CC(C)(C)C)Cc1cccc2ccccc12,103 % of DMSO
O=C(Nc1c(Cl)cncc1Cl)c1ccc(OC(F)F)c(OCC2CC2)c1,101 % of DMSO
CNc1ccc([N+](=O)[O-])cc1-n1cnc(-c2ccc(C(F)(F)F)cc2)c1,110 % of DMSO
Cn1cc(-c2ccc3nnc(Sc4ccc5ncccc5c4)n3n2)cn1,40.2 % of DMSO
COc1ccc(-n2cnnn2)cc1CN[C@H]1CCCN[C@H]1c1ccccc1,107 % of DMSO
CC(C)(Oc1ccc(CCNC(=O)c2ccc(Cl)cc2)cc1)C(=O)O,104 % of DMSO
COC(=O)c1cnn(-c2ccc(F)cc2F)c1C=NNC(=S)NC(C)(C)C,92.2 % of DMSO

# Study 3 — read-out: enzyme activity; action: inhibitor; concentration: 0.5 µM; baseline: control
# Target: Ephrin type-B receptor 3 (EPHB3, Homo sapiens, UniProt P54753)
# Construct (P54753 1-998): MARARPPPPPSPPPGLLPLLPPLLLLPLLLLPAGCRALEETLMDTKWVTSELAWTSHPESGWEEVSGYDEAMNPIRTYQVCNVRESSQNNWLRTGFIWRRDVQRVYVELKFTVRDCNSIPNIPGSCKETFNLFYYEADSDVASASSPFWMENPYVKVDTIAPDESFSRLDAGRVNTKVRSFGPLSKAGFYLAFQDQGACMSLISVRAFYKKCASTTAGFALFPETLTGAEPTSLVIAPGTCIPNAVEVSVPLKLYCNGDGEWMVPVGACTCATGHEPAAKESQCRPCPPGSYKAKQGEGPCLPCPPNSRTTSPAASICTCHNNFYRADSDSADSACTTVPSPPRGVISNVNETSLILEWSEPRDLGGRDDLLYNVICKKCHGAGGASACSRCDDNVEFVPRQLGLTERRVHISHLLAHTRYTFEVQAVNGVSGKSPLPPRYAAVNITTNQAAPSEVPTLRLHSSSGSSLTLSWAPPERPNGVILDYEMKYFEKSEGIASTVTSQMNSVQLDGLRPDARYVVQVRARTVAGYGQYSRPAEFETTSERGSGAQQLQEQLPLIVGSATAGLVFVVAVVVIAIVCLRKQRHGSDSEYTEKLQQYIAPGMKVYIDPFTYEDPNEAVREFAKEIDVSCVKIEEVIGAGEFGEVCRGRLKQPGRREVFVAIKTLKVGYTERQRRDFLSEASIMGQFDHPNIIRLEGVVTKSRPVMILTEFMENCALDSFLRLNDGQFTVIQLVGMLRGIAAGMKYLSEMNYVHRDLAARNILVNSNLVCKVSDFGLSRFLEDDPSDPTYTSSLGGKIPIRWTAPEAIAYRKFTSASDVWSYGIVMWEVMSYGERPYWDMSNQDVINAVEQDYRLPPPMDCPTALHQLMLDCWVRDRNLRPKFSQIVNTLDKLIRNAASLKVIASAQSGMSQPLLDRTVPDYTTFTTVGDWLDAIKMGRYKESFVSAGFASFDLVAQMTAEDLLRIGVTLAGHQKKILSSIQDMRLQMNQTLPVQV
SMILES,remaining activity
CCCNC(=O)Nc1ccc(Oc2ncnc3cc(OC)c(OC)cc23)cc1Cl,93.7%
O=C1Nc2ccc(Br)cc2/C1=C/c1cc2c([nH]1)CCCC2,99.7%
O=C1NC(=O)c2c1c1c3ccccc3[nH]c1c1[nH]c3cc(Br)ccc3c21,91.9%
Cc1ccc(S(=O)(=O)/C=C/C#N)cc1,104%
O=C1Nc2ccccc2/C1=C\c1c(Cl)[nH]c2ccccc12,91.3%
CCCCc1c(-c2ccc(OC)cc2)[nH]c2nccnc12,99.8%
O=Nc1c(-c2c(O)[nH]c3cc(Br)ccc23)[nH]c2ccccc12,103%
CN(C)S(=O)(=O)c1ccc2c(c1)/C(=C/c1cc3c([nH]1)CCCC3)C(=O)N2,105%
Cc1cc(Nc2cc(N3CCN(C)CC3)nc(Sc3ccc(NC(=O)C4CC4)cc3)n2)[nH]n1,62.2%
N#Cc1cnc2cnc(NCc3cccnc3)cc2c1Nc1ccc(F)c(Cl)c1,98.5%

# Study 4 — read-out: enzyme activity; action: inhibitor; concentration: 10 µM
# Target: Calcium/calmodulin-dependent protein kinase type II subunit alpha (CAMK2A, Homo sapiens, UniProt Q9UQM7)
# UniProt Q9UQM7, sequence (whole entry, looked up): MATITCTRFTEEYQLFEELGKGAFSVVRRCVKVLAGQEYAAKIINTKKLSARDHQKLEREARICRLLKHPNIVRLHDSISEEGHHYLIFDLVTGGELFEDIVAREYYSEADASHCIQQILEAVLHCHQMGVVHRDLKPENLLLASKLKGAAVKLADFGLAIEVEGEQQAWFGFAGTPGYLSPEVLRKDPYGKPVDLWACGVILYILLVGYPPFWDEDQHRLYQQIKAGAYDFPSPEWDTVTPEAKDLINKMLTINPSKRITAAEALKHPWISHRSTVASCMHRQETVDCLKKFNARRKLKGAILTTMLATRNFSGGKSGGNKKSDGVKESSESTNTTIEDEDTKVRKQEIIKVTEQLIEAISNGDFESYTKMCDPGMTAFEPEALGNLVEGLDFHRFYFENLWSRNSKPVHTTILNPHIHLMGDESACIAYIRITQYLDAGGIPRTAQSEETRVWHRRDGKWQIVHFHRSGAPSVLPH
Structure (SMILES),inhibition
OC[C@@H](O)[C@@H](O[C@H]1O[C@H](CO)[C@@H](O)[C@H](O)[C@H]1O)[C@H](O)[C@@H](O)CO,-18%
CCOC(=O)/C=C/c1ccc(O)c(O)c1,-40%
O=C(O)CCCCCCCCCCCCC(=O)O,-1%
CC(=O)OC(C)C(C)C(=O)OC[C@@]12[C@H]3C[C@]4(C)C(=CC[C@@H]5[C@@]6(C)CC[C@H](O[C@@H]7O[C@H](C(=O)O)[C@@H](O[C@@H]8O[C@H](CO)[C@@H](O)[C@H](O)[C@H]8O)[C@H](O)[C@H]7O[C@@H]7OC[C@@H](O)[C@H](O)[C@H]7O)[C@@](C)(CO)[C@@H]6CC[C@]54C)[C@@H]1CC(C)(C)[C@H](O3)[C@@H]2O (stereo partly drawn),-14%
CC1(C)C(/C=C/C=C/C=C/C=C2\N(CCCCS(=O)(=O)O)c3ccc4ccccc4c3C2(C)C)=[N+](CCCCS(=O)(=O)[O-])c2ccc3ccccc3c21,-4%
C[N+](C)(C)C[C@H](O)CC(=O)O,65%

# A few entries again (study 4):
Structure (SMILES),inhibition
OC[C@@H](O)[C@@H](O[C@H]1O[C@H](CO)[C@@H](O)[C@H](O)[C@H]1O)[C@H](O)[C@@H](O)CO,-18%
C[N+](C)(C)C[C@H](O)CC(=O)O,65%
CC1(C)C(/C=C/C=C/C=C/C=C2\N(CCCCS(=O)(=O)O)c3ccc4ccccc4c3C2(C)C)=[N+](CCCCS(=O)(=O)[O-])c2ccc3ccccc3c21,-4%
